Assay results collected from several papers.
Organism: Pseudomonas aeruginosa

CC(C)C[C@@H]1NC(=O)CSC[C@@H](C(=O)N[C@@H](CCCCN)C(N)=O)NC(=O)[C@H](CC(C)C)NC(=O)[C@H](CC(C)C)NC(=O)[C@H](CC(C)C)NC(=O)[C@@H]2CSCC(=O)N[C@@H](CC(C)C)C(=O)N[C@@H](CC(C)C)C(=O)N[C@@H](CCCCN)C(=O)N[C@@H](CCCCNC(=O)[C@H](CCCCN)NC(=O)[C@H](CC(C)C)NC1=O)C(=O)N[C@@H](CCCCN)C(=O)N[C@@H](CCCCN)C(=O)N[C@@H](CC(C)C)C(=O)N2 — MIC (PAO1; 18 h): 64 µg/mL
CC(C)CCCCC(=O)N[C@@H](CCN)C(=O)N[C@H](C(=O)N[C@H](CCN)C(=O)N[C@H]1CCNC(=O)[C@H]([C@@H](C)O)NC(=O)[C@H](CCN)NC(=O)[C@H](CCN)NC(=O)[C@H]([C@@H](C)O)NC(=O)[C@@H](CC(C)C)NC(=O)[C@H](CCN)NC1=O)[C@@H](C)O — MIC (broth microdilution; FADDI-PA070, polymyxin resistant, CAMHB; 18 h, 37 °C): > 32 µg/mL
CC[C@@H](C)[C@H](NC(=O)[C@H](C)NC(=O)[C@H](CCCCN)NC(=O)[C@H](CC(C)C)NC(=O)[C@H](C)NC(=O)[C@@H](NC(=O)[C@H](Cc1c[nH]cn1)NC(=O)[C@H](CC(C)C)NC(=O)[C@@H](NC(=O)[C@@H](NC(=O)[C@H](CCCCN)NC(=O)[C@H](CCCCN)NC(=O)[C@H](C)NC(=O)[C@H](CO)NC(=O)[C@H](CCCCN)NC(=O)[C@H](Cc1ccccc1)NC(=O)[C@@H](NC(=O)[C@H](CCCCN)NC(=O)[C@H](CC(C)C)NC(=O)[C@H](Cc1ccccc1)NC(=O)[C@H](CO)NC(=O)[C@H](CCCCN)NC(=O)[C@H](Cc1c[nH]c2ccccc12)NC(=O)[C@H](CCCCN)NC(C)=O)[C@@H](C)O)[C@@H](C)O)C(C)C)[C@@H](C)O)C(=O)N[C@@H](CO)C(=O)N[C@@H](CO)C(N)=O — MIC (broth dilution; ATCC 27853, Mueller-Hinton broth; 24 h, 37 °C): 4 µg/mL
CC(C)[C@H](NC(=O)[C@H](CCCCN)NC(=O)[C@H](CCCNC(=N)N)NC(=O)CNC(=O)[C@H](C)NC(=O)[C@H](CC(N)=O)NC(=O)[C@H](CCCNC(=N)N)NC(=O)[C@@H](NC(=O)[C@H](CCCCN)NC(=O)[C@H](CC(=O)O)NC(=O)[C@@H](NC(=O)[C@@H](NC(=O)[C@H](CCCNC(=N)N)NC(=O)[C@H](CCCNC(=N)N)NC(=O)[C@H](Cc1c[nH]c2ccccc12)NC(=O)[C@H](Cc1c[nH]c2ccccc12)NC(=O)CN)[C@@H](C)O)C(C)C)C(C)C)C(=O)O — MIC (clinical strain 110; 18 h, 37 °C): > 256 µg/mL
CC(C)C[C@@H]1NC(=O)[C@@H](CC(C)C)NC(=O)[C@H](CCN)NC(=O)[C@@H](NC(=O)[C@H](CCN)NC(=O)[C@@H](N)[C@@H](C)O)CCNC(=O)[C@H]([C@@H](C)O)NC(=O)[C@H](CCN)NC(=O)[C@H](CCN)NC1=O — MIC (broth microdilution; NDM-1, CAMHB with polysorbate-80; 16 h): > 64 µg/mL
CC(C)CCCCCCCCCCCCc1cc(O)cc(O)c1 — MIC (broth microdilution; PAO1 chloramphenicol-resistant; 37 °C): > 64 µg/mL
CC[C@H](C)[C@H](NC(=O)[C@H](CCCCN)NC(=O)[C@H](CCCNC(=N)N)NC(=O)[C@@H](NC(=O)[C@H](CC(C)C)NC(=O)[C@H](CCCCN)NC(=O)[C@H](CC(C)C)NC(=O)[C@@H](NC(=O)[C@H](CCCCN)NC(=O)CNC(=O)[C@H](Cc1ccccc1)NC(=O)[C@@H](N)Cc1ccccc1)C(C)C)[C@@H](C)CC)C(=O)N[C@@H](Cc1ccccc1)C(N)=O — MIC (broth microdilution): > 100 µM
C[C@@](O)(C(F)F)[C@H](NC(=O)c1ccc(C#CC#CC2CC2)cc1)C(=O)NO — MIC (broth microdilution; PAO1, CAMHB): 0.122 µg/mL
CC(C)C[C@H](NC(=O)CN)C(=O)N[C@@H](CC(C)C)C(=O)N[C@@H](CCCCN)C(=O)N[C@@H](CC(C)C)C(=O)N[C@@H](CC(C)C)C(=O)N[C@@H](CCCCN)C(=O)N[C@@H](CCCCN)C(=O)N[C@@H](CC(C)C)C(=O)N[C@@H](CC(C)C)C(=O)N[C@@H](CCCCN)C(=O)N[C@@H](CC(C)C)C(=O)N[C@@H](CC(C)C)C(=O)N[C@@H](CCCCN)C(N)=O — MIC (ATCC 19606, CAMHB; 18 h, 37 °C): > 19 µM
CCCCCCCC[C@H]1NC(=O)[C@H](CCN)NC(=O)[C@@H](NC(=O)[C@H](CCN)NC(=O)[C@@H](NC(=O)[C@H](CCN)NC(=O)c2ccc(-c3ccccc3)cc2)[C@@H](C)O)CCNC(=O)[C@H]([C@@H](C)O)NC(=O)[C@H](CCN)NC(=O)[C@H](CCN)NC(=O)[C@H](CC(C)C)NC1=O — MIC (ATCC 27853, CaMHB; 18 h, 37 °C): 2 µg/mL
NCCCC[C@H](NC(=O)[C@@H]1CSCC(=O)N[C@@H](CCCCN)C(=O)N[C@@H](Cc2ccccc2)C(=O)N[C@@H](CCCCN)C(=O)N[C@H]2CCCCNC(=O)[C@H](CCCCN)NC(=O)[C@H](Cc3ccccc3)NC(=O)[C@H](CCCCN)NC(=O)CSC[C@H](NC(=O)[C@H](Cc3ccccc3)NC(=O)[C@H](Cc3ccccc3)NC(=O)[C@H](CCCCN)NC2=O)C(=O)N[C@@H](Cc2ccccc2)C(=O)N[C@@H](Cc2ccccc2)C(=O)N[C@@H](Cc2ccccc2)C(=O)N1)C(N)=O — MIC (PAO1; 18 h): > 256 µg/mL
C[C@@H](N)[C@H](O)CCCCCCCC(=O)CCCCCCCCCCCCCC[C@@H](O[C@@H]1O[C@H](CO)[C@H](O)[C@H](O)[C@H]1O)[C@H](N)CO — MIC (microbial growth, resazurin; ATCC27853; 6 h): 12.2 µM
